{"data": "Measured values from different studies"}
{"Compound": "O=C1Nc2cc3[nH]nc(-c4ccncc4)c3cc2CN1Cc1ccccc1", "assay": "measured: increased ALT", "test system": "patients with advanced solid tumours", "setting": "intravenous, dose not given, schedules 1 and 2", "quantity": "patients with grade ≥3 TEAE", "result": "9%"}
{"Compound": "CCN(CCO)CCCC(C)Nc1ccnc2cc(Cl)ccc12 (stereo not shown)", "assay": "measured: Anxiety grade 1", "test system": "newly diagnosed glioblastoma patients", "setting": "oral, 200 mg/dose, with radiotherapy and temozolomide", "quantity": "patients with adverse event", "result": "33%"}
{"Compound": "COc1c(OCCCN2CCOCC2)ccc2c1N=C(NC(=O)c1cnc(N)nc1)N1CCN=C21", "assay": "measured: Constipation", "test system": "patients with advanced malignancies", "setting": "intravenous, dose not given, any grade, all cohorts, together with: gemcitabine", "quantity": "patients with adverse event", "result": "30%"}
{"Compound": "CO[C@H]1C[C@@H]2CC[C@@H](C)[C@@](O)(O2)C(=O)C(=O)N2CCCC[C@H]2C(=O)O[C@H]([C@H](C)C[C@@H]2CC[C@@H](OC(=O)NCCOCCOCCOCCOCCOCCOCCOCCOCCC(=O)N3CCc4cc(Cn5nc(-c6ccc7oc(N)nc7c6)c6c(N)ncnc65)ccc4C3)[C@H](OC)C2)C[C@@H](O)[C@H](C)/C=C(\\C)[C@@H](O)[C@@H](OC)C(=O)[C@H](C)C[C@H](C)/C=C/C=C/C=C/1C", "assay": "measured: AEs leading to dose reduction", "test system": "patients with advanced solid tumours", "setting": "intravenous, dose not given, all patients, weekly", "quantity": "patients with AE", "result": "11%"}
{"Compound": "C=CCNc1c(O)cc2c(O)c1C[C@@H](C)C[C@H](OC)[C@H](O)[C@@H](C)/C=C(\\C)[C@H](OC(N)=O)[C@@H](OC)/C=C\\C=C(/C)C(=O)N2", "test system": "unresectable or metastatic STS, GIST, other", "setting": "intravenous, 90 mg/m^2", "quantity": "patients with vomiting TEAE", "result": "67%"}
{"Compound": "Nc1nc2cc(-c3ccc4ncc(C(=O)N5CCOCC5)n4c3)ccc2o1", "assay": "all-cause adverse events, all grades", "test system": "patients with advanced solid tumours", "setting": "dose not given", "quantity": "patients with adverse events", "result": "100%"}
{"Compound": "C[C@@H]1OC(=O)NN=C1c1ccc(-c2ccc(F)cc2)c(C(F)(F)F)c1", "test system": "patients, phase I trial", "setting": "oral, 5 mg once daily, worst grade 1", "quantity": "patients with abdominal distension", "result": "0%"}
{"Compound": "N[C@@H]1c2ccccc2OC12CCN(c1cnc3c(N4CCCc5ncccc54)n[nH]c3n1)CC2", "test system": "advanced solid tumour patients", "setting": "oral, 40 mg once daily", "quantity": "patients with any TEAE", "result": "100%"}
{"Compound": "CC(=O)c1c(C)c2cnc(Nc3ccc(C4CCN(CCS(C)(=O)=O)CC4)cn3)nc2n(C2CCCC2)c1=O", "test system": "HR+/HER2- advanced breast cancer patients", "setting": "oral, dose not given, all grades,, sample A patients", "quantity": "patients with anaemia", "result": "44.4%"}
{"Compound": "CN1CC[C@@H](c2c(O)cc(O)c3c(=O)cc(-c4ccc(C(F)(F)F)cc4Cl)oc23)[C@@H]1CO", "assay": "measured: Lymphopenia", "test system": "relapsed AML", "setting": "oral, 200 mg, grade 3-4, intermittent dosing", "quantity": "patients with adverse event", "result": "10%"}
{"note": "A few entries again:"}
{"Compound": "N[C@@H]1c2ccccc2OC12CCN(c1cnc3c(N4CCCc5ncccc54)n[nH]c3n1)CC2", "test system": "advanced solid tumour patients", "setting": "oral, 40 mg once daily", "quantity": "patients with any TEAE", "result": "100%"}
